Measurements from different studies.
Protocols differ between the studies behind these lines. Several values in a cell are separate wells, animals, samples, runs or records. pEC50, pIC50: −log10 of the molar value.

For `CC(C)=CCc1c(O)ccc(C(=O)/C=C/c2ccc(O)cc2)c1O`, the CPE inhibition was 25% (SARS-CoV-2; viral replication; Vero E6; 50 µM; baseline: mean of replicates).
`O=c1[nH]c(=O)n([C@H]2C[C@H](O)[C@@H](CO)O2)cc1/C=C/Br` — result for “viral replication inhibition”: “inactive” (SARS-CoV-2; concentration not given, Paris laboratory).
The maximum response of `CCOc1ccc(CN2CCN(Cc3ccc4c(c3)c3ccccc3n4CC)CC2)cc1` is reported as 65.8% (SARS-CoV-2; cytopathic effect; USA_WA1/2020; round 2, 5-point).
`CO[C@@H]1[C@H](N(C)C(=O)c2ccccc2)C[C@H]2O[C@]1(C)n1c3ccccc3c3c4c(c5c6ccccc6n2c5c31)C(=O)NC4`: “viral replication inhibition” “inactive” (SARS-CoV-2; concentration not given, Paris laboratory).
`Cc1nn(-c2ccc(Cl)cc2)c2c1C(c1ccc(Cl)cc1)C(C#N)=C(N)O2` (stereo not shown) gave a viral reduction of 8.49% (SARS-CoV-2; viral replication; Vero; 10 µM).
`CN(c1nc2ccccc2s1)C1CCN(CC(O)COc2ccc(F)cc2)CC1` (stereo not shown) has a pEC50 of < 4.00 (SARS-CoV-2; viral replication, high-content imaging screen; cell-based).
`CC(C)(C)N1CCC(c2ccccc2)(c2ccccc2)CC1` has a maximum response of 40.7% (SARS-CoV-2; cytopathic effect; USA_WA1/2020; round 1, 5-point).
For `O=C(O[C@@H]1Cc2c(O)cc(O)cc2O[C@@H]1c1cc(O)c(O)c(O)c1)c1cc(O)c(O)c(O)c1`, the mean inhibition was 0% (SARS-CoV-2; cytopathic effect; Vero E6; 12.5 µM, replicate run).
`COc1ccccc1-c1ccc(CN2CCC(NC(=O)Cc3ccc(F)cc3)C2)cc1` (stereo not shown) gave a maximum response of 90.6% (SARS-CoV-2; cytopathic effect; USA_WA1/2020; round 1, 5-point).
For `Cc1nn(-c2ccc(Cl)cc2)c2c1C(c1ccc(Cl)cc1Cl)C(C#N)=C(N)O2` (stereo not shown), the viral reduction was 8.04% (SARS-CoV-2; viral replication; Vero; 10 µM).
With `C=CCN1CC[C@@]2(C)c3cc(O)ccc3C[C@@H]1[C@@H]2C` the pIC50 was < 5.00 (SARS-CoV-2; viral replication; Vero E6; inactive set pIC50 4).
The Ct value of `Cc1nn(-c2ccc(Cl)cc2)c2c1C(c1c(Cl)cccc1Cl)C(C#N)=C(N)O2` (stereo not shown) is reported as 23.8 cycles (SARS-CoV-2; RT-qPCR, refers to: viral RNA; Vero; 1 µM; higher means less virus).
`COc1ccc2cc(-c3cc(-c4cc(Cl)cc(Cl)c4)nn3[C@@H](C)c3ccc(C(=O)NCCC(=O)O)cc3)ccc2c1` gave a pEC50 of < 4.00 (SARS-CoV-2; viral replication, GFP plate reader screen; cell-based).
`Cc1cc(OCC(O)CN2CCN(c3cccc(Cl)c3)CC2)ccc1Cl` (stereo not shown) has a maximum response of 80.4% (SARS-CoV-2; cytopathic effect; USA_WA1/2020; round 1, 5-point).
With `CCC(CC)COC(=O)[C@H](C)N[P@](=O)(OC[C@H]1O[C@@](C#N)(c2ccc3c(N)ncnn23)[C@H](O)[C@@H]1O)Oc1ccccc1` the remaining activity was 0.472% (SARS-CoV-2; replicon RdRp activity; HeLa; 10 µM).
`Clc1ccc(C(OCCN2CCCCC2)c2ccccc2)cc1` (stereo not shown) — result for “viral replication inhibition”: “inactive” (SARS-CoV-2; concentration not given, Paris laboratory).
`Cc1ccccc1CN1CCN(CCOC(c2ccccc2)c2ccccc2Cl)CC1` (stereo not shown) gave a pEC50 of < 4.00 (SARS-CoV-2; viral replication, GFP plate reader screen; cell-based).
Under “viral titre log reduction”, `Cc1nn(-c2ccc(Cl)cc2)c2c1C(c1ccc(I)cc1)C(C#N)=C(N)O2` (stereo not shown) is recorded as 0.0335 log10 (SARS-CoV-2; Vero C1008; 1 µM; baseline: positive control).
`CCCCN(CCCC)CCC(O)c1cc2c(Cl)cc(Cl)cc2c2cc(C(F)(F)F)ccc12` (stereo not shown) has a pEC50 of 5.04 (SARS-CoV-2; viral replication, high-content imaging screen; cell-based).
`CC(C)(C)[C@H](NC(=O)C(F)(F)F)C(=O)N1C[C@H]2[C@@H]([C@H]1C(=O)N[C@H](C#N)C[C@@H]1CCNC1=O)C2(C)C` has an inhibition of 1.84% and 4.11% (SARS-CoV-2; viral replication; Vero E6; 0.0002 µM).
`COc1cc(/C=C/C(=O)N2CCC=CC2=O)cc(OC)c1OC` gave a pEC50 of < 4.30 (SARS-CoV-2; viral replication, GFP plate reader screen; BetaCov/Belgium/GHB-03021/2020; cell-based).
`O=C(O)c1cc(-c2ccc(/C=C3\SC(=S)N(Cc4ccccc4)C3=O)o2)ccc1Cl`: “viral replication inhibition” “inactive” (SARS-CoV-2; concentration not given, Paris laboratory).
For `COc1ccc(C[C@@H]2c3cc(Oc4cc(C[C@@H]5c6cc(O)c(OC)cc6CCN5C)ccc4O)c(OC)cc3CCN2C)cc1`, the CPE inhibition was 0% (SARS-CoV-2; viral replication; Vero E6; 1.562 µM; baseline: mean of replicates).
`CC(C)(C)NCc1ccc(Nc2ccnc3cc(Cl)ccc23)cc1O` gave an EC90 of 0.705 µM (SARS-CoV-2; viral replication; 293T-ACE2, USA-WA1/2020).
The pIC50 of `Cc1cccc(CN2CCN(C(c3ccccc3)c3ccc(Cl)cc3)CC2)c1` (stereo not shown) is reported as < 5.00 (SARS-CoV-2; viral replication, RT-qPCR; A549 expressing ACE2).
The AC50 of `O=C(NCCCN1CCCCC1)c1cc(Sc2ccc(Cl)cc2)nc2ccccc12` is reported as 11.2 µM (SARS-CoV-2; cytopathic effect, cell-based CPE; USA_WA1/2020; round 2, 5-point dilution).
The pIC50 of `O=C(O)c1ccc(N2C(=O)/C(=C/c3ccc(-c4ccc([N+](=O)[O-])cc4)o3)C=C2c2ccccc2)cc1` is reported as < 5.70 (SARS-CoV-2; viral replication; Huh-7).
For `CC1CCN(CCCC(=O)c2ccc(F)cc2)CC1`, the pIC50 was < 5.00 (SARS-CoV-2; viral replication, RT-qPCR; A549 expressing ACE2).
`CC(=O)N[C@H]1[C@H]([C@H](O)[C@H](O)CO)OC(C(=O)O)=C[C@@H]1N=C(N)N` gave a pIC50 of < 5.70 (SARS-CoV-2; viral replication; Huh-7).
The viral titre of `COc1cc(C2C(C#N)=C(N)Oc3c2c(C)nn3-c2ccc(Cl)cc2)cc(OC)c1OC` (stereo not shown) is reported as 756000 IU/mL (SARS-CoV-2; Vero; 1 µM).
The antigen-positive cells of `Nc1ncnc2c([C@@H]3N[C@H](CO)[C@@H](O)[C@H]3O)c[nH]c12` is reported as 52.2% (Zaire ebolavirus; antibody staining; human macrophages; 1.6 µM).
For `COCC12CN(S(=O)(=O)c3ccc4cc(Cl)ccc4c3)CC(=O)N1CC1(CCN(c3ccncc3)CC1)O2` (stereo not shown), the inhibition was 49.3% (SARS-CoV-2; viral replication; Vero E6, USA-WA1/2020; 2.5 µM).
`CN(C)c1cccc(C(=O)NCC2CCN(c3cc(-c4ccc(Cl)cc4)n[nH]3)CC2)c1` has an efficacy of 19.5% (SARS-CoV-2; cytopathic effect; USA_WA1/2020; retest, 8-point, duplicates).
`NC(=O)C1(N2CCCCC2)CCN(CCCN2c3ccccc3CCc3ccccc32)CC1` has a pEC50 of < 4.00 (SARS-CoV-2; viral replication, high-content imaging screen; cell-based).
`CC[C@H](C)[C@H](NC(=O)[C@H](CC(C)C)NC(=O)[C@H](Cc1c[nH]c2ccccc12)NC(=O)[C@H](CCC(N)=O)NC(=O)[C@@H](NC(=O)[C@H](Cc1ccccc1)NC(=O)[C@H](C)NC(=O)[C@H](CCCCNC(=O)COCCOCCNC(=O)COCCOCCNC(=O)CC[C@H](NC(=O)CCCCCCCCCCCCCCCCCCC(=O)O)C(=O)O)NC(=O)[C@H](CCC(N)=O)NC(=O)[C@H](C)NC(=O)[C@@H](NC(=O)[C@H](CCCCN)NC(=O)[C@H](CC(=O)O)NC(=O)[C@H](CC(C)C)NC(=O)C(C)(C)NC(=O)[C@@H](NC(=O)[C@H](CO)NC(=O)[C@H](Cc1ccc(O)cc1)NC(=O)[C@H](CC(=O)O)NC(=O)[C@H](CO)NC(=O)[C@@H](NC(=O)[C@H](Cc1ccccc1)NC(=O)[C@@H](NC(=O)CNC(=O)[C@H](CCC(=O)O)NC(=O)C(C)(C)NC(=O)[C@@H](N)Cc1ccc(O)cc1)[C@@H](C)O)[C@@H](C)O)[C@@H](C)CC)[C@@H](C)CC)C(C)C)C(=O)N[C@@H](C)C(=O)NCC(=O)NCC(=O)N1CCC[C@H]1C(=O)N[C@@H](CO)C(=O)N[C@@H](CO)C(=O)NCC(=O)N[C@@H](C)C(=O)N1CCC[C@H]1C(=O)N1CCC[C@H]1C(=O)N1CCC[C@H]1C(=O)N[C@@H](CO)C(N)=O` — result for “pulse rate change”: -0.4 bpm (patients with type 2 diabetes; 0.5 mg, day 29, proof of concept, LS mean; baseline: baseline).
`CC[C@H](C)C[C@H](C)CCCCCCCCC(=O)N[C@H]1C[C@@H](O)[C@@H](NCCN)NC(=O)[C@@H]2[C@@H](O)CCN2C(=O)[C@H]([C@H](O)CCN)NC(=O)[C@H]([C@H](O)[C@@H](O)c2ccc(O)cc2)NC(=O)[C@@H]2C[C@@H](O)CN2C(=O)[C@H]([C@@H](C)O)NC1=O` has a selectivity index of 1 (SARS-CoV-2; Vero; baseline: CC50 over IC50).
`O=C(/C=C/c1ccc(O)c(O)c1/C=C/c1ccc(O)c(O)c1)O[C@H](Cc1ccc(O)c(O)c1)C(=O)O` gave a CPE inhibition of 25% (SARS-CoV-2; viral replication; Vero E6; 50 µM; baseline: mean of replicates).
With `O=C1CCc2cc(OCCCCc3nnnn3C3CCCCC3)ccc2N1` the pIC50 was < 5.70 (SARS-CoV-2; viral replication; Huh-7).
With `CC/C(=C(/C#N)c1ccc(OCCN(CC)CC)cc1)c1ccc(Cl)cc1` the inhibition was 50.5% (SARS-CoV-2; viral replication; Vero E6, USA-WA1/2020; 2.5 µM).
`CCN(CC)CCNC(=O)c1ccc(-c2nc(CN3CCc4ccccc43)c(C)o2)cc1` gave an efficacy of 82.8% (SARS-CoV-2; cytopathic effect; USA_WA1/2020; retest, 8-point, duplicates).
`CCN(CC)CCOC(=O)C(O)(c1ccccc1)c1ccccc1` gave a pIC50 of < 5.00 (SARS-CoV-2; viral replication, anti-nucleoprotein immunostaining; Vero E6).
With `NCCC(O)(P(=O)(O)O)P(=O)(O)O` the pIC50 was < 5.70 (SARS-CoV-2; viral replication; Huh-7).
For `CC[C@H]1C[N@@]2CC[C@H]1C[C@H]2[C@H](O)c1ccnc2ccc(OCCC(C)C)cc12`, the pEC50 was < 4.00 (SARS-CoV-2; viral replication, high-content imaging screen; cell-based).
For `CCN(CC)CCC1(c2ccccc2)C(=O)Oc2ccccc21` (stereo not shown), the inhibition was 52.8% (SARS-CoV-2; viral replication; Vero E6, USA-WA1/2020; 2.5 µM).
`Cn1cncc1[C@@](N)(c1ccc(Cl)cc1)c1ccc2c(c1)c(-c1cccc(Cl)c1)cc(=O)n2C` gave a pEC50 of < 4.00 (SARS-CoV-2; viral replication, GFP plate reader screen; cell-based).
The maximum response of `COc1ccc(CC(=O)NC2CCN(Cc3ccc(-c4ccccc4OC)cc3)C2)cc1` (stereo not shown) is reported as 88% (SARS-CoV-2; cytopathic effect; USA_WA1/2020; round 1, 5-point).

For quick reference, copied from above:
With `CC/C(=C(/C#N)c1ccc(OCCN(CC)CC)cc1)c1ccc(Cl)cc1` the inhibition was 50.5% (SARS-CoV-2; viral replication; Vero E6, USA-WA1/2020; 2.5 µM).
The pIC50 of `Cc1cccc(CN2CCN(C(c3ccccc3)c3ccc(Cl)cc3)CC2)c1` (stereo not shown) is reported as < 5.00 (SARS-CoV-2; viral replication, RT-qPCR; A549 expressing ACE2).
`O=c1[nH]c(=O)n([C@H]2C[C@H](O)[C@@H](CO)O2)cc1/C=C/Br` — result for “viral replication inhibition”: “inactive” (SARS-CoV-2; concentration not given, Paris laboratory).
`CCN(CC)CCNC(=O)c1ccc(-c2nc(CN3CCc4ccccc43)c(C)o2)cc1` gave an efficacy of 82.8% (SARS-CoV-2; cytopathic effect; USA_WA1/2020; retest, 8-point, duplicates).
Under “viral titre log reduction”, `Cc1nn(-c2ccc(Cl)cc2)c2c1C(c1ccc(I)cc1)C(C#N)=C(N)O2` (stereo not shown) is recorded as 0.0335 log10 (SARS-CoV-2; Vero C1008; 1 µM; baseline: positive control).
For `CC[C@H]1C[N@@]2CC[C@H]1C[C@H]2[C@H](O)c1ccnc2ccc(OCCC(C)C)cc12`, the pEC50 was < 4.00 (SARS-CoV-2; viral replication, high-content imaging screen; cell-based).
